# Measured values from different studies.
# Parts stem from different laboratories: compare values within a part only.

# Set 1
# Target: PABPC1L2, full length, GST fusion (mouse, UniProt A0ABA7IW68)
# Method: RNAcompete
# Form: RNA
# Sample: in vitro
# Concentration: 20 nM
# Notes: 7-mer, probes averaged, single round
# Baseline: mean of 7-mers
# Direction: higher = stronger binding
# Residues (chain): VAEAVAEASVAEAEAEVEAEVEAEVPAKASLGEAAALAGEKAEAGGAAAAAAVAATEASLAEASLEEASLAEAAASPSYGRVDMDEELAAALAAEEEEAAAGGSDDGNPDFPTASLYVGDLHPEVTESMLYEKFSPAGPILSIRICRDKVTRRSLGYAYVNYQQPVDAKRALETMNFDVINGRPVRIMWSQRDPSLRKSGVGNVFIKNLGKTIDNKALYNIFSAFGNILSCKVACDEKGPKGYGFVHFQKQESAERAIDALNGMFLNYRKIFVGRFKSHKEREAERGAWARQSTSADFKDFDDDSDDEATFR
Strand,7-mer Z-score
UACAUGU,-0.0844
GCGGGUG,0.274
CUCCAGU,-0.237

# Set 2
# Target: Interferon regulatory factor 7, full length, phosphomimetic (IRF7, Homo sapiens, UniProt Q92985, residues 1-503, S471D/S472D/S475D/S476D/S477D/S483D/S484D/S487D)
# UniProt Q92985, sequence (whole entry, unmodified, looked up): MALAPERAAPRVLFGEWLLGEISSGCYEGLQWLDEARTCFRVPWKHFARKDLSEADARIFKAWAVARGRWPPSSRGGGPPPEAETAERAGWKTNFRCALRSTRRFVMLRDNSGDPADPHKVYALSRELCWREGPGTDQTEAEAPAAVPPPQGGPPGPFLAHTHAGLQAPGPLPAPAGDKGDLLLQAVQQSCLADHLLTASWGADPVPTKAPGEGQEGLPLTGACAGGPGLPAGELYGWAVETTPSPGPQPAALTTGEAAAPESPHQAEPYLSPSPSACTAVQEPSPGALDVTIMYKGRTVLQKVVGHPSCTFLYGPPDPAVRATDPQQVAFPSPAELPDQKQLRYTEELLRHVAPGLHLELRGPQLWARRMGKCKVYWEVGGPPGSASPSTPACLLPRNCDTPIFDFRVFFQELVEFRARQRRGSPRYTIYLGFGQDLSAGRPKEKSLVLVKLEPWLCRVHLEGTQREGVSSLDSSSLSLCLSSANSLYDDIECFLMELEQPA
# Method: protein-binding microarray
# Form: double-stranded DNA, one strand shown
# Sample: in vitro
# Concentration: 2200 nM top
# Notes: 60-bp whole probe
# Together with: salmon DNA 0.4 mg/ml
# Baseline: random background probes
# Direction: higher = stronger binding
Strand,fitted relative affinity
GCCTAGCACGACGGTATTGGGTATCGGGACGTGCTAGTCTTGATTCGCTTGACGCTGCTG,-0.253 z-score
GCCTAGCACTTAGGACTGGGATATCGGTTAGTGCTAGTCTTGATTCGCTTGACGCTGCTG,-0.232 z-score
GCCTAGCACGTCGGACTGGGTCTCGGGACGTGCTAGGTCTTGATTCGCTTGACGCTGCTG,-0.658 z-score
GCCTAGCACGACGGTCTCGCTCTCGGGACGTGCTAGGTCTTGATTCGCTTGACGCTGCTG,0.0288 z-score

# Set 3
# Target: Sal-like protein 4, full length isoform B (SALL4, Homo sapiens, UniProt Q9UJQ4-2, residues 1-616)
# Method: universal PBM
# Form: double-stranded DNA, one strand shown
# Sample: in vitro
# Concentration: not given
# Notes: 8-mer, flanks averaged, mean of replicates
# Direction: higher = stronger binding
# Construct (chain): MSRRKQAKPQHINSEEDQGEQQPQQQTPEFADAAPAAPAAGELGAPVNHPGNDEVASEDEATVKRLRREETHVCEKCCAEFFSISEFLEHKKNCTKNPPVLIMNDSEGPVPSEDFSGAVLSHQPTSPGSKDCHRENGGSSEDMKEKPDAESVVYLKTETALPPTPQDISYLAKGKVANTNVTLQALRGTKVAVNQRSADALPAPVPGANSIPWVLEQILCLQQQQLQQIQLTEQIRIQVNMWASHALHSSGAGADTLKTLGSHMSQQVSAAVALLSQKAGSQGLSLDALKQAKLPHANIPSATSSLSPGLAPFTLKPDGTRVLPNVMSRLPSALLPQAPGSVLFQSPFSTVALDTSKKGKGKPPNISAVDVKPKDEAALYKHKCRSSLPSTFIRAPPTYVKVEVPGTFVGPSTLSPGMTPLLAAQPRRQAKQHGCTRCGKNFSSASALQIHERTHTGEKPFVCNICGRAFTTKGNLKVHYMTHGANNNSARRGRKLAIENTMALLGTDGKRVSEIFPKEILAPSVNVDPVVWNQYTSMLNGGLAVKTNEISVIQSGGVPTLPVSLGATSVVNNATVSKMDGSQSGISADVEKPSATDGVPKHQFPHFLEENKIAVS
Strand,E-score
CGGGCTAG,-0.295
ACATTCGA,0.0875
GCCAGCGA,-0.322

# Other studies, line by line
Molecule,target,test,system,conditions,scale,quantity,value
"PhoQ, residues 284 288 289 292 302 303 SVHLDV","PhoP, residues 12 14 15 18 19 LYHSL (Escherichia coli, UniProt P23836)","Sort-seq, item: YFP reporter",E. coli,"PhoQ-PhoP variant library, together with: 10 µM Mg2+","baseline: high Mg2+ state, higher = stronger signaling",fold induction,2.48

# For quick reference, copied from above (set 3):
Strand,E-score
GCCAGCGA,-0.322
